Measurements of several laboratories.
Several values in a cell are separate wells, animals, samples, runs or records. Numbers after ± are the reported error.

Compound | target or system | test | test system | conditions | how to read | quantity | result
O=C(O)c1ccc(-c2nc(-c3ccccc3Cl)c3sccn23)cc1 | HEL | flow cytometry |  | 0.1 mM |  | CD71-positive cells | 84.8%
NC(=S)N/N=C/c1ccc(OCc2cccc(F)c2)cc1 | IMR-32 | refers to: GPX3 |  | 500 µg/mL, 24 h | higher = more activity | glutathione peroxidase activity (OD450) | 0.363 a.u.
CC(=O)NCSC[C@H](NC(=O)[C@@H]1CCCN1C(=O)[C@H](C)NC(=O)[C@@H](NC(=O)CNC(=O)[C@@H](NC(=O)[C@H](Cc1c[nH]c2ccccc12)NC(=O)[C@H](C)NC(=O)CNC(=O)[C@H](CO)NC(=O)[C@H](C)NC(=O)[C@@H]1CCCN1C(=O)[C@H](Cc1c[nH]c2ccccc12)NC(=O)[C@H](C)NC(=O)[C@H](C)NC(=O)[C@@H](N)Cc1ccc(O)cc1)[C@@H](C)O)[C@@H](C)O)C(=O)N[C@@H](CO)C(=O)N[C@@H](C)C(=O)NCC(=O)N[C@H](C(=O)NCCOCCOCCOCCOCCOCCOCCOCCOCCOCCOCCOCCOCCC(=O)N[C@@H](CS)C(N)=O)[C@@H](C)O | H2122 lung adenocarcinoma | cell binding, phage binding, refers to: output/input phage |  | 10 min, 37 °C | reference: control phage | selectivity ratio | 3.6 ± 1.3
CC1CCC2C(C)C(OC(=O)CCC(=O)N3CCC(Nc4ccc(S(=O)(=O)NC(=O)c5ccc(N6CCN(CC7=C(c8ccc(Cl)cc8)CC(C)(C)CC7)CC6)cc5Oc5cnc6[nH]ccc6c5)cc4[N+](=O)[O-])CC3)OC3OC4(C)CCC1C32OO4 (centres unmarked) | THP-1 | annexin V/PI flow cytometry, refers to: annexin V-/PI+ |  | 0.8 µM, 24 h |  | necrotic cells | 0.8%
CC(C)[C@H](NC(=O)[C@H](CCCNC(=N)N)NC(=O)[C@@H]1CCCN1C(=O)[C@@H](NC(=O)[C@H](C)NC(=O)[C@H](Cc1ccc(O)cc1)NC(=O)[C@H](CCC(N)=O)NC(=O)[C@H](CCCCN)NC(=O)[C@H](CCCNC(=N)N)NC(=O)[C@@H]1CCCN1C(=O)[C@H](CCC(=O)O)NC(=O)[C@@H](NC(=O)[C@H](C)N)[C@@H](C)O)[C@@H](C)O)C(=O)N[C@@H](Cc1ccccc1)C(=O)N[C@@H](Cc1c[nH]c2ccccc12)C(=O)N[C@H](C(=O)N[C@@H](CC(=O)O)C(=O)N[C@@H](C)C(=O)N1CCC[C@H]1C(=O)NCC(=O)NCCOCCOCCOCCOCCOCCOCCOCCOCCOCCOCCOCCOCCC(=O)N[C@@H](CS)C(N)=O)[C@@H](C)O | H2126 lung adenocarcinoma | cell binding, phage binding, refers to: output/input phage |  | 10 min, 37 °C | reference: control phage | selectivity ratio | 3.9 ± 0.4
CC(C)CC(O)(CC(C)C)c1cn(C(=O)N2CCCC2)nn1 | mouse T-cells | SILAC proteomics, refers to: Fdx1 |  | 1 nM, 6 h, single peptides, unit not given | reference: DMSO | protein level | 0.93 and 1.09
CC(C)C[C@H](NC(=O)[C@H](CC(=O)O)NC(=O)CNC(=O)[C@@H](N)CCCNC(=N)N)C(=O)N[C@@H](C)C(=O)N[C@H](C(=O)N[C@@H](CC(C)C)C(=O)N[C@@H](CCCNC(=N)N)C(=O)N[C@@H](CCC(N)=O)C(=O)N[C@@H](CC(C)C)C(=O)N[C@@H](C)C(=O)N[C@@H](CCC(N)=O)C(=O)N[C@@H](CCC(=O)O)C(=O)N[C@@H](CC(=O)O)C(=O)NCC(=O)N[C@H](C(=O)N[C@H](C(=O)NCC(=O)N[C@H](C(=O)N[C@@H](CCCNC(=N)N)C(=O)NCCOCCOCCOCCOCCOCCOCCOCCOCCOCCOCCOCCOCCC(=O)N[C@@H](CS)C(N)=O)C(C)C)C(C)C)C(C)C)[C@@H](C)O | HCC461 | phage binding |  |  | reference: targeting over control phage | selectivity ratio | 10 ± 5.8
NC(=O)N/N=C/c1ccc(OCc2cccc(F)c2)cc1 | IMR-32 | refers to: GPX3 |  | 400 µg/mL, 24 h | higher = more activity | glutathione peroxidase activity (OD450) | 0.104 a.u.
CC=C1CNC2CC3(C(=O)N(OC)c4cc(OC)ccc43)C3CC1C2CO3 (centres unmarked) | HT-22 | CCK-8 |  | up to 100 µM, 24 h |  | viability | no effect
O=C(C[Se]C(=O)c1ccco1)Nc1cccc(C(F)(F)F)c1 | NCI60 leukaemia subpanel | NCI60 five-dose screen |  |  |  | mean TGI | 60.3 µM
CC[C@H](C)[C@H](NC(=O)[C@H](CC(C)C)NC(=O)[C@H](CC(=O)O)NC(=O)[C@H](CCCNC(=N)N)NC(=O)[C@H](Cc1c[nH]c2ccccc12)NC(=O)[C@@H](N)CC(C)C)C(=O)N[C@@H](CS)C(=O)N[C@@H](CC(C)C)C(=O)N[C@@H](CS)C(=O)N[C@@H](CCCNC(=N)N)C(=O)N[C@@H](CC(N)=O)C(=O)N[C@@H](CCCNC(=N)N)C(=O)N[C@@H](CCCNC(=N)N)C(=O)N[C@@H](CS)C(=O)N[C@@H](CC(N)=O)C(=O)N[C@@H](CCCNC(=N)N)C(=O)NCC(=O)N[C@@H](CCC(N)=O)C(=O)N[C@@H](CC(C)C)C(=O)N[C@@H](Cc1ccccc1)C(=O)N1CCC[C@H]1C(=O)NCC(=O)N[C@@H](Cc1c[nH]c2ccccc12)C(=O)N[C@@H](CS)C(=O)N1CCC[C@H]1C(=O)NCC(=O)N[C@@H](Cc1c[nH]c2ccccc12)C(=O)N[C@@H](Cc1c[nH]c2ccccc12)C(=O)N[C@@H](CC(C)C)C(=O)N[C@@H](CCCNC(=N)N)C(=O)N[C@@H](CS)C(=O)N[C@@H](CS)C(=O)N[C@@H](CCCNC(=N)N)C(=O)N[C@@H](CCCNC(=N)N)C(N)=O | RAW264.7 | ELISA |  | 200 µg/mL, 12 h, together with: LPS 0.1 µg/mL | reference: LPS alone | IL-6 and TNF-alpha levels | decreased
CC(C)(C)C(=O)OCOP(=O)(OCOC(=O)C(C)(C)C)C1CCCN(O)C1=O (centres unmarked) | T47D |  |  |  |  | CC50 | > 100 µM
O=C(C[Se]C(=O)c1cc2ccccc2[nH]1)Nc1cccc(C(F)(F)F)c1 | NCI60 melanoma subpanel | cytotoxicity, inhibitor |  | five-dose |  | CC50 | 5.93 µM
COc1ccccc1-c1ccncc1C(=O)Nc1nnc(OCc2ccc(Cl)cc2)s1 | RPE-1 BRCA1 WT parental |  |  | 0.06 µM, run 1 | reference: untreated | colony survival | 86.1%
O=C(C[Se]C(=O)c1cc2ccccc2o1)Nc1cccc(C(F)(F)F)c1 | NCI60 melanoma subpanel | cytotoxicity, inhibitor |  | five-dose |  | CC50 | 6.79 µM
O=C1NC2(CC2)COc2ncc(F)cc2[C@H]2COCCN2c2ccn3ncc1c3n2 |  |  | Sprague-Dawley rat, male, serum | oral, 2.5 mg/kg/day, end of treatment, 4-week subacute toxicity |  | serum LDH activity | 761 ± 310 U/L
Cc1cc(Oc2nc(N3CC[C@@H](c4ccncc4)C3)ncc2F)[nH]n1 | bladder cancer cell lines | cell proliferation |  | average over lines |  | IC50 | 58.9 µM
CC[C@H](C)[C@H](NC(=O)[C@H](C)NC(=O)CNC(=O)[C@H](Cc1ccccc1)NC(=O)[C@H](CC(N)=O)NC(=O)[C@H](CC(N)=O)NC(=O)[C@H](CO[C@@H]1O[C@H](CO)[C@@H](O)[C@H](O)[C@H]1NC(C)=O)NC(=O)[C@H](CO)NC(=O)[C@H](Cc1c[nH]cn1)NC(=O)[C@@H](NC(=O)[C@H](CC(C)C)NC(=O)[C@H](Cc1ccccc1)NC(=O)[C@H](CC(N)=O)NC(=O)[C@H](C)NC(=O)[C@@H](N)CC(C)C)C(C)C)C(=O)N[C@@H](CC(C)C)C(N)=O | INS-1 | MTT |  | 1 equivalents to hIAPP, 24 h, together with: hIAPP 1 µM |  | viability | 64.9% and 67%
CC[C@H](C)[C@H](NC(=O)[C@H](C)NC(=O)CNC(=O)[C@H](Cc1ccccc1)NC(=O)[C@H](CC(N)=O)NC(=O)[C@H](CC(N)=O)NC(=O)[C@H](CO)NC(=O)[C@H](CO)NC(=O)[C@H](Cc1c[nH]cn1)NC(=O)[C@@H](NC(=O)[C@H](CC(C)C)NC(=O)[C@H](Cc1ccccc1)NC(=O)[C@H](CC(N)=O)NC(=O)[C@H](C)NC(=O)[C@H](CC(C)C)NC(=O)[C@H](CCCNC(=N)N)NC(=O)[C@H](CCC(N)=O)NC(=O)[C@@H](NC(=O)[C@H](C)NC(=O)[C@@H]1CSSC[C@H](NC(=O)[C@@H](N)CCCCN)C(=O)N[C@@H](CC(N)=O)C(=O)N[C@@H]([C@@H](C)O)C(=O)N[C@@H](C)C(=O)N[C@@H]([C@@H](C)O)C(=O)N1)[C@@H](C)O)C(C)C)C(=O)N[C@@H](CC(C)C)C(=O)N[C@@H](CO)C(=O)N[C@@H](CO)C(=O)N[C@H](C(=O)N[C@@H](CC(N)=O)C(=O)N[C@H](C(=O)NCC(=O)N[C@@H](CO)C(=O)N[C@@H](CC(N)=O)C(=O)N[C@H](C(=O)N[C@@H](Cc1ccc(O)cc1)C(N)=O)[C@@H](C)O)C(C)C)[C@@H](C)O | RIN-m5F | refers to: 20S proteasome α-4 subunit |  | 24 h |  | Pearson coefficient | > 0.6
Cc1cc(C(=O)Nc2nc3cccc(C)c3n2[C@H]2CCCCN(C(=O)/C=C/CN(C)C)C2)ccn1 | Trypanosoma brucei | propidium iodide flow cytometry | bloodstream form | concentration not given, 3 h |  | cells in G1 phase | 44.5%
CC1OC2OC3C4=C(OC3(C)C12O)C(=O)c1c(O)cccc1C4=O (centres unmarked) | A549 and Vero | MTT |  |  | reference: CC50 Vero over EC50 A549 | selectivity index | 2.35
O=C(C[Se]C(=O)C12CC3CC(CC(C3)C1)C2)Nc1cccc(C(F)(F)F)c1 | NCI60 leukaemia subpanel | NCI60 five-dose screen |  |  |  | CC50 | 36 µM
CC(C)Cc1ccc(C(C)C(=O)[O-])cc1.CC(C)Cc1ccc(C(C)C(=O)[O-])cc1.O.[Cu+2].c1ccncc1.c1ccncc1 (centres unmarked) | OVCAR-3 | MTT |  | 48 h |  | TGI | 40 ± 0.8 µM
O=C(C[Se]C(=O)c1cccs1)Nc1cccc(C(F)(F)F)c1 | NCI60 melanoma subpanel | total growth inhibition, inhibitor |  | five-dose |  | mean TGI | 3.41 µM
CSCC[C@H](NC(=O)[C@@H](NC(=O)[C@H](CCC(N)=O)NC(=O)[C@H](CO)NC(=O)[C@@H](N)C(C)C)[C@@H](C)O)C(=O)N[C@@H](CCCNC(=N)N)C(=O)N[C@@H](CCC(N)=O)C(=O)N[C@H](C(=O)N[C@@H](C)C(=O)N[C@H](C(=O)N1CCC[C@H]1C(=O)N[C@@H](CC(C)C)C(=O)N[C@@H](CC(C)C)C(=O)N[C@@H](Cc1c[nH]c2ccccc12)C(=O)N[C@@H](Cc1ccccc1)C(=O)N[C@@H](Cc1c[nH]c2ccccc12)C(=O)N[C@H](C(=O)NCC(=O)N[C@@H](CO)C(=O)N[C@@H](CC(C)C)C(=O)NCCOCCOCCOCCOCCOCCOCCOCCOCCOCCOCCOCCOCCC(=O)N[C@@H](CS)C(N)=O)[C@@H](C)O)C(C)C)[C@@H](C)O | H2126 lung adenocarcinoma | cell binding, phage binding, refers to: output/input phage |  | 10 min, 37 °C | reference: control phage | selectivity ratio | 0.91 ± 0.55
COc1ccccc1-c1n[nH]c2nc(NC3CCN(C(=O)Cc4ccc(F)cc4F)CC3)ncc12 |  | bead binding, competition bead pull-down, refers to: LINJ.09.0820 | Leishmania donovani extract | 10 µM | reference: vehicle | relative abundance | 1.18

Some of these lines once more:
Compound | target or system | test | test system | conditions | how to read | quantity | result
CC(C)CC(O)(CC(C)C)c1cn(C(=O)N2CCCC2)nn1 | mouse T-cells | SILAC proteomics, refers to: Fdx1 |  | 1 nM, 6 h, single peptides, unit not given | reference: DMSO | protein level | 0.93 and 1.09
O=C(C[Se]C(=O)c1ccco1)Nc1cccc(C(F)(F)F)c1 | NCI60 leukaemia subpanel | NCI60 five-dose screen |  |  |  | mean TGI | 60.3 µM
CC(C)C[C@H](NC(=O)[C@H](CC(=O)O)NC(=O)CNC(=O)[C@@H](N)CCCNC(=N)N)C(=O)N[C@@H](C)C(=O)N[C@H](C(=O)N[C@@H](CC(C)C)C(=O)N[C@@H](CCCNC(=N)N)C(=O)N[C@@H](CCC(N)=O)C(=O)N[C@@H](CC(C)C)C(=O)N[C@@H](C)C(=O)N[C@@H](CCC(N)=O)C(=O)N[C@@H](CCC(=O)O)C(=O)N[C@@H](CC(=O)O)C(=O)NCC(=O)N[C@H](C(=O)N[C@H](C(=O)NCC(=O)N[C@H](C(=O)N[C@@H](CCCNC(=N)N)C(=O)NCCOCCOCCOCCOCCOCCOCCOCCOCCOCCOCCOCCOCCC(=O)N[C@@H](CS)C(N)=O)C(C)C)C(C)C)C(C)C)[C@@H](C)O | HCC461 | phage binding |  |  | reference: targeting over control phage | selectivity ratio | 10 ± 5.8
COc1ccccc1-c1ccncc1C(=O)Nc1nnc(OCc2ccc(Cl)cc2)s1 | RPE-1 BRCA1 WT parental |  |  | 0.06 µM, run 1 | reference: untreated | colony survival | 86.1%
